# Assay results pooled from the literature.
# Lines come from different studies, so protocols differ. ± gives the spread as reported.
Structure (SMILES),assay,test system,conditions,quantity,result
COc1ccc2cc([C@H](C)C(=O)N[C@H](Cc3ccccc3)C(=O)N[C@H](Cc3ccccc3)C(=O)N[C@H](Cc3ccc(O)cc3)C(=O)O)ccc2c1,TEM,hydrogel 0.8 wt%,,nanofiber width,7 ± 2 nm
CCCC[C@H](NC(=O)CCCCCCCNC(=O)CN1CCN(CC(=O)O)CCN(CC(=O)O)CC1)C(=O)N[C@H]1CC(=O)NCCCC[C@@H](C(N)=O)NC(=O)[C@H](Cc2c[nH]c3ccccc23)NC(=O)[C@H](CCCNC(=N)N)NC(=O)[C@@H](Cc2ccccc2)NC(=O)[C@H](Cc2c[nH]cn2)NC1=O [copper-64 labelled],,"C57 mice, kidney","intravenous, 0.37 MBq, 4 h",tissue uptake,1.08 ± 0.22 %ID/g
C[C@H](NC(=O)CNC(=O)[C@H](CCC(=O)O)NC(=O)[C@H](CCC(=O)O)NC(=O)[C@H](CC(=O)O)NC(=O)[C@@H]1CCCN1C(=O)[C@H](Cc1ccccc1)NC(=O)[C@H](CS)NC(=O)[C@H](Cc1ccc(O)cc1)NC(=O)CCCNC(=O)CNC(=O)CNC(=O)[C@@H](C)NC(=O)CN)C(=O)N[C@@H](CS)C(=O)N[C@@H](Cc1ccc(O)cc1)C(N)=O [technetium-99m labelled],paper chromatography,sealed vial,"4 h, room temperature",radiochemical purity,93.3 ± 1.08%
CC(=O)N[C@@H](CCCCNC(=S)Nc1ccc(CC2CN(CC(=O)O)CCN(CC(=O)O)CCN2CC(=O)O)cc1)C(=O)N1CCC[C@H]1C(=O)N(C)[C@@H](CCCNC(=N)N)C(=O)N[C@@H](CCCNC(=N)N)C(=O)N1CCC[C@H]1C(=O)N[C@@H](Cc1ccc(O)cc1)C(=O)N[C@H](C(=O)N[C@@H](CC(C)C)C(=O)O)C(C)(C)C (some centres unmarked) [copper-64 labelled],radio-HPLC,PBS,"4 h, pH 7.5",radiochemical purity,93.7%
N=C(N)NCCC[C@@H]1NC(=O)[C@H](CCCCNC(=O)CC[C@H](NC(=O)CC[C@H](NC(=O)CN2CCN(CC(=O)O)CCN(CC(=O)O)CCN(CC(=O)O)CC2)C(=O)N[C@@H](CCC(=O)NCCCC[C@@H]2NC(=O)[C@@H](Cc3ccccc3)NC(=O)[C@H](CC(=O)O)NC(=O)CNC(=O)[C@H](CCCNC(=N)N)NC2=O)C(=O)NCCCC[C@@H]2NC(=O)[C@@H](Cc3ccccc3)NC(=O)[C@H](CC(=O)O)NC(=O)CNC(=O)[C@H](CCCNC(=N)N)NC2=O)C(=O)NCCCC[C@@H]2NC(=O)[C@@H](Cc3ccccc3)NC(=O)[C@H](CC(=O)O)NC(=O)CNC(=O)[C@H](CCCNC(=N)N)NC2=O)NC(=O)[C@@H](Cc2ccccc2)NC(=O)[C@H](CC(=O)O)NC(=O)CNC1=O [indium-111 labelled],,"female athymic nu/nu mice, blood","intravenous, 0.5 h",tissue uptake,0.8 ± 0.18 %ID/g
CCCC[C@H](NC(=O)COCCOCCNC(=O)CN1CCN(CC(=O)O)CCN(CC(=O)O)CC1)C(=O)N[C@H]1CC(=O)NCCCC[C@@H](C(N)=O)NC(=O)[C@H](Cc2c[nH]c3ccccc23)NC(=O)[C@H](CCCNC(=N)N)NC(=O)[C@@H](Cc2ccccc2)NC(=O)[C@H](Cc2c[nH]cn2)NC1=O [copper-64 labelled],,"C57 mice, heart","intravenous, 0.37 MBq, 24 h",tissue uptake,0.17 ± 0.05 %ID/g
N=C(N)NCCC[C@@H]1NC(=O)[C@H](CCCCNC(=O)CNC(=O)CNC(=O)CNC(=O)CC[C@H](NC(=O)CNC(=O)CNC(=O)CNC(=O)CN2CCN(CC(=O)O)CCN(CC(=O)O)CCN(CC(=O)O)CC2)C(=O)NCC(=O)NCC(=O)NCC(=O)NCCCC[C@@H]2NC(=O)[C@@H](Cc3ccccc3)NC(=O)[C@H](CC(=O)O)NC(=O)CNC(=O)[C@H](CCCNC(=N)N)NC2=O)NC(=O)[C@@H](Cc2ccccc2)NC(=O)[C@H](CC(=O)O)NC(=O)CNC1=O [indium-111 labelled],,"female athymic nu/nu mice, U87MG tumour","intravenous, 111 kBq, 4 h",tissue uptake,6.72 ± 2.06 %ID/g
COc1ccc2cc([C@H](C)C(=O)N[C@H](Cc3ccccc3)C(=O)N[C@H](Cc3ccccc3)C(=O)N[C@H](CCCCN)C(=O)N[C@H](Cc3ccc(O)cc3)C(=O)O)ccc2c1,TEM,hydrogel 0.8 wt%,,nanofiber width,10 ± 2 nm
CCCC[C@H](NC(=O)CNC(=O)CNC(=O)CN1CCN(CC(=O)O)CCN(CC(=O)O)CCN(CC(=O)O)CC1)C(=O)N[C@H]1CC(=O)NCCCC[C@@H](C(N)=O)NC(=O)[C@H](Cc2c[nH]c3ccccc23)NC(=O)[C@H](CCCNC(=N)N)NC(=O)[C@@H](Cc2ccccc2)NC(=O)[C@H](Cc2c[nH]cn2)NC1=O [lutetium-177 labelled],,"C57 mouse, female, spleen","intravenous, 0.037 MBq, 4 h",tissue uptake,0.32 ± 0.11 %ID/g
N=C(N)NCCC[C@@H]1NC(=O)[C@H](CCCCNC(=O)CNC(=O)CNC(=O)CNC(=O)CC[C@H](NC(=O)CNC(=O)CNC(=O)CNC(=O)CC[C@H](NC(=O)CN2CCN(CC(=O)O)CCN(CC(=O)O)CCN(CC(=O)O)CC2)C(=O)NCC(=O)NCC(=O)NCC(=O)N[C@@H](CCC(=O)NCC(=O)NCC(=O)NCC(=O)NCCCC[C@@H]2NC(=O)[C@@H](Cc3ccccc3)NC(=O)[C@H](CC(=O)O)NC(=O)CNC(=O)[C@H](CCCNC(=N)N)NC2=O)C(=O)NCC(=O)NCC(=O)NCC(=O)NCCCC[C@@H]2NC(=O)[C@@H](Cc3ccccc3)NC(=O)[C@H](CC(=O)O)NC(=O)CNC(=O)[C@H](CCCNC(=N)N)NC2=O)C(=O)NCC(=O)NCC(=O)NCC(=O)NCCCC[C@@H]2NC(=O)[C@@H](Cc3ccccc3)NC(=O)[C@H](CC(=O)O)NC(=O)CNC(=O)[C@H](CCCNC(=N)N)NC2=O)NC(=O)[C@@H](Cc2ccccc2)NC(=O)[C@H](CC(=O)O)NC(=O)CNC1=O [indium-111 labelled],,"female athymic nu/nu mice, blood","intravenous, 4 h",tissue uptake,0.05 %ID/g
Cc1cc(-c2ccc(NC(=O)[C@H](CCCCNC(=O)CCOCCOCCC(=O)N[C@H](Cc3ccccc3)C(=O)N[C@H]3CSSC[C@@H](C(=O)N[C@H](C(=O)O)[C@@H](C)O)NC(=O)[C@H]([C@@H](C)O)NC(=O)[C@H](CCCCN)NC(=O)[C@@H](Cc4c[nH]c5ccccc45)NC(=O)[C@H](Cc4ccc(O)cc4)NC3=O)NC(=O)CN3CCN(CC(=O)O)CCN(CC(=O)O)CCN(CC(=O)O)CC3)c(C)c2)ccc1N=Nc1ccc2c(S(=O)(=O)O)cc(S(=O)(=O)O)c(N)c2c1O [lutetium-177 labelled],,"patients with metastatic neuroendocrine tumours, kidney",kidney absorbed dose limit 23-29 Gy,maximum cumulative administered activity,12 to 15 GBq

# Excerpt of the above:
Structure (SMILES),assay,test system,conditions,quantity,result
N=C(N)NCCC[C@@H]1NC(=O)[C@H](CCCCNC(=O)CC[C@H](NC(=O)CC[C@H](NC(=O)CN2CCN(CC(=O)O)CCN(CC(=O)O)CCN(CC(=O)O)CC2)C(=O)N[C@@H](CCC(=O)NCCCC[C@@H]2NC(=O)[C@@H](Cc3ccccc3)NC(=O)[C@H](CC(=O)O)NC(=O)CNC(=O)[C@H](CCCNC(=N)N)NC2=O)C(=O)NCCCC[C@@H]2NC(=O)[C@@H](Cc3ccccc3)NC(=O)[C@H](CC(=O)O)NC(=O)CNC(=O)[C@H](CCCNC(=N)N)NC2=O)C(=O)NCCCC[C@@H]2NC(=O)[C@@H](Cc3ccccc3)NC(=O)[C@H](CC(=O)O)NC(=O)CNC(=O)[C@H](CCCNC(=N)N)NC2=O)NC(=O)[C@@H](Cc2ccccc2)NC(=O)[C@H](CC(=O)O)NC(=O)CNC1=O [indium-111 labelled],,"female athymic nu/nu mice, blood","intravenous, 0.5 h",tissue uptake,0.8 ± 0.18 %ID/g
